Assay results from different studies.
A part holds a random share of what one study measured. Positions count from the first letter of the parent shown.

Series 1 — method: RNA Bind-n-Seq; form: RNA; medium: in vitro; concentration: 1 µM; notes: whole 134-nt RNA, ends assumed; added: 150 mM KCl; relative to: input library; direction: higher = stronger binding; measurement: log2 enrichment
Target: Ras GTPase-activating protein-binding protein 1, C-terminal RGG region (G3BP1, Homo sapiens, UniProt Q13283)
UniProt Q13283, sequence (whole entry, looked up): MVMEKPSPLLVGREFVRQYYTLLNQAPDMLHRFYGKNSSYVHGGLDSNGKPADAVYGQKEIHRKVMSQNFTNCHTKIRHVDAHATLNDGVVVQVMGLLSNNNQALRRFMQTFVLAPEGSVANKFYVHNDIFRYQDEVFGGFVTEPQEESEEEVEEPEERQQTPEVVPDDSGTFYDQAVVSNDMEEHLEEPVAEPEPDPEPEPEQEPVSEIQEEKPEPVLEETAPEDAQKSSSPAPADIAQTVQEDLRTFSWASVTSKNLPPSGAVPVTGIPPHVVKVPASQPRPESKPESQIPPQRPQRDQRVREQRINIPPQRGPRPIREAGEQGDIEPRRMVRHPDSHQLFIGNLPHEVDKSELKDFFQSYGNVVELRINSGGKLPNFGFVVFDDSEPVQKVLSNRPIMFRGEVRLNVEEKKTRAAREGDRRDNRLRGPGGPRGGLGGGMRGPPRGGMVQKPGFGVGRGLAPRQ
Sequence = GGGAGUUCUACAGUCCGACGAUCUUCACAGCCAGCAGGCAUUGGAAUAUGGCACCAAACUCGUUGGAGGAACCACUCCAGGGAAAGGAGGCCAGACACAUCUGGGCUUACCUGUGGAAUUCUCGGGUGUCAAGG; value = -1.18
Sequence = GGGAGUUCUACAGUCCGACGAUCCACAGACAACACGCACCCACACAGACACAGAGGGAAGGGGUUGGGAUGGGGACAGGGUGCACAGCAGGGCGGGAUAGGACCCCAGCCCCUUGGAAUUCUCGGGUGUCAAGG; value = -1.3
Sequence = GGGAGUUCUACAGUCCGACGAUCGCAGGAAGUAAAAACAAAUGGAAAUGCUCCGGAUAGUGGCAGGGGUGGGGGUUGCUAAGGAAAGGGUGGGAUGGGAGUGGGUAAAGAGUUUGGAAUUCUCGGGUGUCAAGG; value = 2.04
Sequence = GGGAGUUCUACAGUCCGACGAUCAAGUCCUGUGCUACACAUCGUAUGUACCGAAUCGGGGUUUGGGGUUUGGGGUUUGGAAAGUAUUAUGUUACGCCGUUCGGAUCUGCACUUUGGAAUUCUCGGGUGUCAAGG; value = -0.64
Sequence = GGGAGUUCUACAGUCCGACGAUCACCAAAAAGGUGGGCAUCUUUGGGAAGUGGGGCAAGGGGGGGAUAGGGAGGGGGGUAACACUUUGGGAACAGGUGGUCCCAGGUCGUUUCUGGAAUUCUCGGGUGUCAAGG; value = -1.06
Sequence = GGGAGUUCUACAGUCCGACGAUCAAGUCCUGUGCUACACAUCGUAUGUACCGAAUCGGGAAAAGGGAAAAGGGAAAAGGGAAAGUAUUAUGUUACGCCGUUCGGAUCUGCACUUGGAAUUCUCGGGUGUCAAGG; value = 0.652
Sequence = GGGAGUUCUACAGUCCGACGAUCGCAGGAAGUAAAAACAAAUGGAAAUGCUUCGGAUAGUGGCAGGGGUGGGGGUUGCUAAGGAAAGGGUGGGAGGGGAGUGGGUAAAGAGUUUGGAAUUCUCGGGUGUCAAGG; value = 1.49
Sequence = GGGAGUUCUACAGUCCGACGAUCCCUCUGGACGAGACCAGCCAGAUGAGCGACCUCCCGGUGAAGGUGAUCCACGUGGAGAGUGGGAAGAUCCUCACAGGCACAGAUGCCCCCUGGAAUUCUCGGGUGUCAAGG; value = -0.863
Sequence = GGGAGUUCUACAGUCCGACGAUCCUGUGCUACACAUCGUAUGUACCGAAUCGGGGAAAGGGGAAAAAAAGGGGUUUUUUUGGGGAAAGUAUUAUGUUACGCCGUUCGGAUCUGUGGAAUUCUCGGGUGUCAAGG; value = 0.112

Series 2 — method: aptamer microarray, sandwich; form: DNA with 2'F-ANA; medium: in vitro; concentration: 200 nM; added: Cy3 exosite-II aptamer, 400 nM; direction: higher = stronger binding; measurement: mean fluorescence intensity; sequence: GGTTGGTGTGGTTGG
Target: Prothrombin, mature alpha-thrombin (F2, Homo sapiens, UniProt P00734)
Notes: whole 15-mer aptamer, many near background
Modification = 2'F-ANA at 1 2 3 4 5 6 9 12; value = 118 a.u.
Modification = 2'F-ANA at 3 4 5 8 10 11 12 14; value = 58.2 a.u.
Modification = 2'F-ANA at 2 3 5 6 7 8 9 11 12 14 15; value = 124 a.u.
Modification = 2'F-ANA at 3 6 8 9 15; value = 822 a.u.
Modification = 2'F-ANA at 2 3 4 5 8 10 12; value = 93.9 a.u.
Modification = 2'F-ANA at 2 4 5 6 8 9 10 11 14; value = 47.9 a.u.
Modification = 2'F-ANA at 1 2 5 9 10 11 14; value = 45.7 a.u.
Modification = 2'F-ANA at 1 2 3 4 5 9 11; value = 52.5 a.u.
Modification = 2'F-ANA at 1 2 6 7 8 9 11 13 14; value = 54.5 a.u.
Modification = 2'F-ANA at 2 5 7 10 12 13 15; value = 47.4 a.u.
Modification = 2'F-ANA at 2 3 7 8 11 12 13; value = 1080 a.u.
Modification = 2'F-ANA at 1 3 4 5 6 8 9 11 12 13 14; value = 45.7 a.u.
Modification = 2'F-ANA at 1 2 4 5 7 8 11 12 13; value = 79.6 a.u.
Modification = 2'F-ANA at 9 12 14 15; value = 242 a.u.
Modification = 2'F-ANA at 1 2 5 6 7 8 9 11 15; value = 81.5 a.u.
Modification = 2'F-ANA at 4 6 7 8 9 10 12 15; value = 121 a.u.
Modification = 2'F-ANA at 5 7 10 11 12 14; value = 43 a.u.
Modification = 2'F-ANA at 2 6 7 8 11 12 13; value = 513 a.u.
Modification = 2'F-ANA at 1 3 4 6 7 10 11 15; value = 257 a.u.
Modification = 2'F-ANA at 1 4 8 9 10 12 13 14 15; value = 49.4 a.u.
Modification = 2'F-ANA at 1 3 5 6 8 9 11 12 13 14; value = 50 a.u.

Series 3 — target: CCNB1, cyclin fold, Cln2 fusion (human); method: yeast growth competition, sequencing; medium: yeast; notes: weak parent motif; relative to: not given; direction: higher = stronger binding; measurement: normalised enrichment score
Starting sequence: CDKN1A docking peptide (human); SKACRRLFGPVDS
Change = SKACERLFGPVDS [R5E]; value = -0.111
Change = SKACRRLFGPVKS [D12K]; value = -0.228
Change = SKACRRLFGPVSS [D12S]; value = 0.332
Change = SKACRRLHGPVDS [F8H]; value = 0.249
Change = SKACRRLFGPVQS [D12Q]; value = -0.15
Change = SKACRRLFGPVAS [D12A]; value = 0.233
Change = SRACRRLFGPVDS [K2R]; value = -0.168
Change = SKACRRLFGPGDS [V11G]; value = 0.061
Change = SKACRDLFGPVDS [R6D]; value = 0.166
Change = SKICRRLFGPVDS [A3I]; value = 0.903
Change = SKACRPLFGPVDS [R6P]; value = -0.263
Change = SKACRRLFKPVDS [G9K]; value = 0.373
Change = SKACRRLFGLVDS [P10L]; value = 0.629
Change = SKACRRLFGPVVS [D12V]; value = 0.144
Change = SKACRRLYGPVDS [F8Y]; value = -0.159
Change = SKACRRTFGPVDS [L7T]; value = 0.299
Change = SKHCRRLFGPVDS [A3H]; value = 0.179
Change = SKACRRLFGPKDS [V11K]; value = 0.14

Series 4 — method: RNA Bind-n-Seq; form: RNA; medium: in vitro; concentration: not given; relative to: input RNA pool; direction: higher = stronger binding; measurement: bound/input enrichment
Target: RING finger protein unkempt homolog, zinc fingers 1-6, GST-SBP tag (UNK, Homo sapiens, UniProt Q9C0B0, residues 30-357)
UniProt Q9C0B0, sequence (30-357, looked up): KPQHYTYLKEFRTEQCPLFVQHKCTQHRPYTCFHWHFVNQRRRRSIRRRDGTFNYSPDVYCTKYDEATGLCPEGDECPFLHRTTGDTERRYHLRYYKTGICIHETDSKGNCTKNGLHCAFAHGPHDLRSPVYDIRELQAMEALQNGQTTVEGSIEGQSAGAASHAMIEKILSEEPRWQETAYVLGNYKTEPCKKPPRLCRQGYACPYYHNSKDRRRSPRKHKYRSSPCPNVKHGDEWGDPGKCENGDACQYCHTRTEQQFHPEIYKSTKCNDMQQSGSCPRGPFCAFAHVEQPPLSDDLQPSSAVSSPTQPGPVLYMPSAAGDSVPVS
Notes: RNA with constant flanks, human and mouse sites, ends assumed
Sequence = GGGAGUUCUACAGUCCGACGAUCAAGCCUGGAAAACCCAAGGGCAAGAAAAAGCUUUCUUCUGUUCGUCAAAAAUUUGAUCAUAGGUUCCAGCCUCAGAACCCCCUCUCUGGAGCUCAGCAGUUCGUGGCAAAGGAGCCCCAGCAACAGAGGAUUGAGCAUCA; value = 0.205 ratio
Sequence = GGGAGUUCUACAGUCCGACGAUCAAGAAUAUUCGCUUUCCACUGAUGACACCACAGGAUCUCAUCAACUAUGUGCAGACAGUAGAUUUCAUGAGAACAGACAAUACCUGUGUGAAUUUACUUUUGGAAGCAAGCAAUUACCAACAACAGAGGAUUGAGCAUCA; value = 0.193 ratio
Sequence = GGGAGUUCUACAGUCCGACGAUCAAGCACUCAAAGCAAAGAAAGAAGAUGGGAAUAAAGCAUUUAAGGAAGGAAAUUACAAACUAGCAUAUGAACUGUACACAGAAGCCCUGGGGAUAGACCCCAACAAUAUAAAAACAAAUGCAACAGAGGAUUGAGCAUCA; value = 2.78 ratio
Sequence = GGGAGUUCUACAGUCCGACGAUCAUUCUCUACGACAAGGAUCAUUACAAGUUGGCUCUGGGGCAAAUAAAUAUUGCCAAAAAUUUAGUGGACAAUGUUGCUAAAGAUUAUGUGCGACUGAUGAAGUAUGGCGACUCUCUCUACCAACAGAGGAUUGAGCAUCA; value = 0.301 ratio
Sequence = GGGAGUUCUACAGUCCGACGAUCCUGGUGGAGAUCCCUACCCCUCAGGAUUACUGGGGCCCGGUGUUUGCCAUCUGCAUCUUCCUCUUCUCCUUCAUCGUCCCCGUGCUCGUCAUCUCUGUCUGCUACAGCCUCAUGAUCCGGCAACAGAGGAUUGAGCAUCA; value = 0.319 ratio
Sequence = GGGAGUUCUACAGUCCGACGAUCGCACAGCAACUCUUACAGUCUUAGGUGUUACCAAGAACAGAUCUCAACUGUAAGAGUUGUCAGUACAGGUUUUCUUUUCCUUUUGUUUUUGUUAUUGUUUUUUUUUUUUUUUUUUUUUUUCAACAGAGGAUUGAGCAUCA; value = 7.89 ratio

For quick reference, copied from above (series 1):
Sequence = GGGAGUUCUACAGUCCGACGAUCUUCACAGCCAGCAGGCAUUGGAAUAUGGCACCAAACUCGUUGGAGGAACCACUCCAGGGAAAGGAGGCCAGACACAUCUGGGCUUACCUGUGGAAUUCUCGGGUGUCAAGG; value = -1.18
Sequence = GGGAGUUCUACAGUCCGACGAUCAAGUCCUGUGCUACACAUCGUAUGUACCGAAUCGGGAAAAGGGAAAAGGGAAAAGGGAAAGUAUUAUGUUACGCCGUUCGGAUCUGCACUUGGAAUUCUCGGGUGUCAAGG; value = 0.652
Sequence = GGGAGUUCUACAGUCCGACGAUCGCAGGAAGUAAAAACAAAUGGAAAUGCUUCGGAUAGUGGCAGGGGUGGGGGUUGCUAAGGAAAGGGUGGGAGGGGAGUGGGUAAAGAGUUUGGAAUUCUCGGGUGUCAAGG; value = 1.49
Sequence = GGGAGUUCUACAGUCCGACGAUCCCUCUGGACGAGACCAGCCAGAUGAGCGACCUCCCGGUGAAGGUGAUCCACGUGGAGAGUGGGAAGAUCCUCACAGGCACAGAUGCCCCCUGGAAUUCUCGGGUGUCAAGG; value = -0.863
Sequence = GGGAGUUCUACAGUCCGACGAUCCUGUGCUACACAUCGUAUGUACCGAAUCGGGGAAAGGGGAAAAAAAGGGGUUUUUUUGGGGAAAGUAUUAUGUUACGCCGUUCGGAUCUGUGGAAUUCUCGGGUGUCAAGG; value = 0.112
